Experimental data from different studies.
Several values in a cell are separate wells, animals, samples, runs or records. ± gives the spread as reported. In brackets after ≈: the same amount, converted by molar mass.
Sequence of UniProt P04629 (whole entry, looked up): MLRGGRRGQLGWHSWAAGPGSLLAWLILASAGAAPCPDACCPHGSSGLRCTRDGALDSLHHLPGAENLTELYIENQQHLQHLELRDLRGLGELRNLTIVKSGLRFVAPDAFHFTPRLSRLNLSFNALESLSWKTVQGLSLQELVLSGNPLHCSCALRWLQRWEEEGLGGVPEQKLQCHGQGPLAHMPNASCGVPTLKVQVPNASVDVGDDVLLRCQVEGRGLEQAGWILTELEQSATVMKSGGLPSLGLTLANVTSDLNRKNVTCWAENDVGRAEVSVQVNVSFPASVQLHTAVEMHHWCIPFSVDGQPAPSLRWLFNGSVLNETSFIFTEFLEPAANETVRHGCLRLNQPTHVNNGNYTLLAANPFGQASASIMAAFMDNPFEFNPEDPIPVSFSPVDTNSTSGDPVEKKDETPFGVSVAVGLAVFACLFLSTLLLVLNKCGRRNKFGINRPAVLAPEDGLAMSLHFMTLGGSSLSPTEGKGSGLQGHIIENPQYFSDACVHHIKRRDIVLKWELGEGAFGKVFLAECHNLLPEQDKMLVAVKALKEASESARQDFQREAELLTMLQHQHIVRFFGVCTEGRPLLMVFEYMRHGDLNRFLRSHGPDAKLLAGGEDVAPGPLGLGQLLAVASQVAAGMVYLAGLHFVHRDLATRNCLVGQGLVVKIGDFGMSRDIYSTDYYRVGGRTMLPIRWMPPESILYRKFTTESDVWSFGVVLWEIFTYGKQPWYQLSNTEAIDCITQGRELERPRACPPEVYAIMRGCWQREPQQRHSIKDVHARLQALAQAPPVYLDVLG

CS(=O)(=O)CCCn1c(Cn2c(=O)n(CC(F)(F)F)c3ccncc32)cc2cc(Cl)ccc21 — result for “LS mean difference vs placebo”: 0.34 log10 copies/mL (respiratory syncytial virus; RT-qPCR; hospitalized infants 1-24 months, nasal swab; oral, 9, 6 or 5 mg/kg daily, day 7, high dose by age cohort; baseline: placebo).
OB(O)c1csc2ccccc12 gave a growth of 68.2% and 87.1% and 79.7% and 86.2% and 66.3% and 81.3% (Staphylococcus aureus; OD600; USA300 fphE::Tn transposon mutant; 1 µM; baseline: wild type).
With CO[C@H]1[C@H](O[C@H]([C@H]2O[C@@H](n3ccc(=O)[nH]c3=O)[C@H](O)[C@@H]2O)[C@H](NCCCNC(=O)[C@@H](NC(=O)[C@@H](NC(=O)N[C@H](C(=O)O)C(C)C)[C@@H]2CCN=C(N)N2)[C@@H](OC(=O)CCCCCCCCCCCCN(O)C(=N)N)C(C)C)C(=O)O)O[C@H](CN)[C@H]1O the MIC50 was over 35 µg/mL (Cryptococcus gattii; alamar blue; C17).
With CC[C@H](C)[C@H](NC(=O)[C@H](Cc1ccccc1)NC(=O)[C@H](CCC(=O)O)NC(=O)[C@H](CCCNC(=N)N)NC(=O)[C@H](C)NC(=O)[C@H](C)NC(=O)[C@H](CCC(N)=O)NC(=O)[C@H](CCCCNc1c(NCCCCCN(O)C(=O)CCC(=O)NCCCCCN(O)C(=O)CCC(=O)NCCCCCN(O)C(C)=O)c(=O)c1=O)NC(=O)[C@H](CCC(=O)O)NC(=O)[C@H](CC(C)C)NC(=O)[C@H](Cc1ccc(O)cc1)NC(=O)[C@H](CO)NC(=O)[C@H](CO)NC(=O)[C@@H](NC(=O)[C@H](CC(=O)O)NC(=O)[C@H](CO)NC(=O)[C@@H](NC(=O)[C@H](Cc1ccccc1)NC(=O)[C@@H](NC(=O)CNC(=O)[C@H](CCC(=O)O)NC(=O)[C@H](C)NC(=O)CCc1cnc[nH]1)[C@@H](C)O)[C@@H](C)O)C(C)C)C(=O)N[C@@H](C)C(=O)N[C@@H](Cc1c[nH]c2ccccc12)C(=O)N[C@@H](CC(C)C)C(=O)N[C@H](C(=O)N[C@@H](CCCNC(=N)N)C(=O)NCC(=O)N[C@@H](CCCNC(=N)N)C(=O)N[C@@H](CCCCNC(=O)COCCOCCNC(=O)COCCOCCNC(=O)CC[C@H](NC(=O)CCCCCCCCCCCCCCCCC(=O)O)C(=O)O)C(=O)NCC(=O)NCC(=O)N[C@@H](CO)C(=O)N[C@@H](CCCCNc1c(NCCCCCN(O)C(=O)CCC(=O)NCCCCCN(O)C(=O)CCC(=O)NCCCCCN(O)C(C)=O)c(=O)c1=O)C(=O)O)C(C)C the EC50 was 0.019 nM (Glucagon-like peptide 1 receptor (GLP1R, Homo sapiens, UniProt P43220); cAMP reporter gene, agonist, CRE luciferase; BHK; without Zr, 0% HSA).
With NC(=O)c1nc(F)c[nH]c1=O the EC50 was 5200 nM (Dengue virus; viral replication; BHK-21, DENV4; 120 h).
For N=C(N)NCCC[C@H](NC(=O)CN)C(=O)N[C@@H](Cc1c[nH]c2ccccc12)C(=O)N[C@@H](CCCNC(=N)N)C(=O)N[C@@H](Cc1c[nH]c2ccccc12)C(=O)N[C@@H](Cc1c[nH]c2ccccc12)C(=O)N[C@@H](Cc1c[nH]c2ccccc12)C(=O)N[C@@H](CCCNC(=N)N)C(=O)N[C@@H](Cc1c[nH]c2ccccc12)C(=O)N[C@@H](CCCNC(=N)N)C(=O)N[C@@H](Cc1ccccc1)C(N)=O, the MIC was 8 µM (≈ 14.2 µg/mL) (Candida albicans; broth microdilution; CGMCC 2.209, RPMI 1640-MOPS; 48 h, 30 °C, with: ZnCl2 8 µM).
CC[C@H](C)[C@@H]1NC(=O)[C@@H]2CCCN2C(=O)[C@H](CC(C)C)NC(=O)[C@H](CC(C)C)NC(=O)CNC(=O)[C@@H](NC(=O)[C@@H](NC(=O)[C@H](CC(=O)O)NC(=O)CNC(=O)[C@@H](NC(=O)[C@H](C)NC(=O)CNC(=O)[C@H](CCCCN)NC(=O)[C@H](CC(C)C)NC(=O)[C@H](CC(C)C)NC(=O)[C@H](CCCCN)NC(=O)CNC(=O)[C@@H](NC(=O)[C@@H](N)CC(C)C)C(C)C)C(C)C)C(C)C)CSSC[C@@H](C(=O)O)NC1=O — result for “log2 fold change”: -2.72 (RNA-seq, measured: Tnfaip2; mouse, traumatic brain injury model, frontal cortex and hippocampus; dose not given; baseline: TBI alone).
The relative abundance of C[C@H]1CN(c2n[nH]c3nc(N[C@H]4CC[C@H](NS(=O)(=O)CCC(F)(F)F)CC4)ncc23)CCO1 is reported as 1.06 (High affinity nerve growth factor receptor (NTRK1, Homo sapiens, UniProt P04629); inhibitor, Kinobeads competition profiling; 0.8 µM; baseline: vehicle).
For O=C1OC(C(F)(F)F)N=C1c1ccc(O)cc1 (centres unmarked), the viability reduction was 6.7% (Schistosoma mansoni; microscopic viability scoring; newly transformed schistosomula; 10 µM, 72 h, prescreen).
With N=C(N)NCCC[C@H](NC(=O)CN)C(=O)N[C@@H](Cc1c[nH]c2ccccc12)C(=O)N[C@@H](CCCNC(=N)N)C(=O)N[C@@H](Cc1c[nH]c2ccccc12)C(=O)N[C@@H](Cc1c[nH]c2ccccc12)C(=O)N[C@@H](Cc1c[nH]c2ccccc12)C(=O)N[C@@H](CCCNC(=N)N)C(=O)N[C@@H](Cc1c[nH]c2ccccc12)C(=O)N[C@@H](CCCNC(=N)N)C(=O)N[C@@H](Cc1c[nH]c2ccccc12)C(N)=O the MIC was 4 µM (≈ 7.26 µg/mL) (Candida albicans; broth microdilution; 14936, RPMI 1640-MOPS; 48 h, 30 °C).
For Nc1ncnc2c1ncn2[C@@H]1O[C@@H]2COP(=O)(O)O[C@H]3[C@@H](O)[C@H](n4cnc5c(=O)[nH]cnc54)O[C@@H]3COP(=O)(O)O[C@H]2[C@H]1O, the fold enrichment was 12.9 (Zika virus; downregulated Reactome pathway, RNA sequencing, measured: Collagen chain trimerization (R-HSA-8948216); HFF-1; baseline: ZIKV-infected untreated).
The IC50 of CC[C@@H]1/C=C(\C)C[C@H](C)C[C@H](OC)[C@H]2O[C@@](O)(C(=O)C(=O)N3CCCC[C@H]3C(=O)O[C@H](/C(C)=C/[C@@H]3CC[C@@H](O)[C@H](OC)C3)[C@H](C)[C@@H](O)CC1=O)[C@H](C)C[C@@H]2OC is reported as 330 nM (Bovine alphaherpesvirus 1; viral replication; MDBK).
C[C@@H]1C[C@H](O)[C@]2(O)O[C@@H]3C[C@@]4(C=O)[C@@H](CC[C@@H]5[C@@H]4CC[C@]4(C)[C@@H](C6=CC(=O)OC6)CC[C@]54O)C[C@H]3O[C@@H]2O1 gave a viability effect of 22.9% (Schistosoma mansoni; microscopic viability score; adult worms; 0.1 µM, 72 h).
COC(=O)N[C@H](C(=O)N1CCC[C@H]1c1ncc(-c2ccc(-c3ccc(-c4cnc([C@@H]5CCCN5C(=O)[C@@H](NC(=O)OC)C(C)C)[nH]4)cc3)cc2)[nH]1)C(C)C has a combination index of 1.15 (Hepatitis C virus; replicon cells, genotype 1a; 50% effect level, with: NS3 inhibitor, ratio 1:1).
C[N+]1=C2C=C(N)C(=O)c3[nH]cc(c32)CC1 has an inhibition of 1.6% (Saccharomyces cerevisiae; cell growth, liquid culture; BY4741; 100 µM, 24 h).
For O=S(=O)(c1nc2ccccc2s1)C(F)c1ccccc1Br (centres unmarked), the viability reduction was 86.2% (Schistosoma mansoni; microscopic viability scoring; newly transformed schistosomula; 10 µM, 72 h, prescreen).
With C[C@@H](O[C@H]1OCCN(Cc2n[nH]c(=O)[nH]2)[C@H]1c1ccc(F)cc1)c1cc(C(F)(F)F)cc(C(F)(F)F)c1 the IC50 was 9530 nM (Human immunodeficiency virus 1; viral replication; PBMC, subtype F isolate from Romania, X4/R5, SI).
CC(=O)O[C@H]1C[C@]2(O)[C@@H]3CC[C@@H]4C[C@@H](O)CC[C@]4(C)[C@H]3CC[C@]2(C)[C@H]1c1ccc(=O)oc1 has an IC50 of 180 nM (Bovine alphaherpesvirus 1; viral replication; MDBK).
C[C@@H]1C[C@H](O)[C@]2(O)O[C@@H]3C[C@@]4(C)[C@@H](CC[C@@H]5[C@@H]4CC[C@]4(C)[C@@H](C6=CC(=O)OC6)CC[C@]54O)C[C@H]3O[C@@H]2O1 gave an IC50 of 220 nM and 200 nM (Schistosoma mansoni; viability, microscopic viability score; adult worms; 72 h).
CC1(C)NC(=O)N(c2cccc(S(F)(F)(F)(F)F)c2)C1=O — result for “worm burden reduction”: 43% (Schistosoma mansoni; adult, infected NMRI mice; oral, 100 mg/kg single dose).
With C[C@]12CC[C@@H]3c4ccc(O)cc4CC[C@H]3[C@@H]1CC[C@@H]2O the ABA level was 48 pmol/g dry weight and 40.8 pmol/g dry weight and 49.1 pmol/g dry weight and 44.2 pmol/g dry weight (Arabidopsis thaliana; shoots; 1 µM).
For Cc1c2c(nn1C)CSCc1cc(n(C)n1)CSc1cc(c3ccccc3c1)OCCCc1c(C(=O)O)n(C)c3c-2c(Cl)ccc13, the fold change was 46.9 (Staphylococcus aureus; label-free quantitative proteomics, measured: SAOUHSC_01833 protein; SA113; concentration not given; baseline: untreated control).
With Nc1ncnc2c1nnn2[C@@H]1C(F)=C(CO)[C@@H](O)[C@H]1O the selectivity index was over 2.67 (Dengue virus; BHK-D2-Rluc; baseline: CC50 over EC50).
For CCOC(=O)c1nnc2c3ccccc3c3ccccc3c2n1, the viability reduction was 9.4% (Schistosoma mansoni; microscopic viability scoring; newly transformed schistosomula; 10 µM, 72 h, prescreen).
The inhibition of Nc1ncnc2c([C@@H]3N[C@H](CO)[C@@H](O)[C@H]3O)c[nH]c12 is reported as 71.9% (Rhinovirus A; viral replication; HRV2 HGP; 9.5 µM).
CC[C@H](C)[C@H](NC(=O)[C@H](C)NC(=O)[C@H](CCCCN)NC(=O)[C@H](CC(C)C)NC(=O)[C@H](C)NC(=O)[C@@H](NC(=O)[C@H](Cc1c[nH]cn1)NC(=O)[C@H](CC(C)C)NC(=O)[C@@H](NC(=O)[C@@H](NC(=O)[C@H](CCCCN)NC(=O)[C@H](C)NC(=O)[C@H](C)NC(=O)[C@H](CO)NC(=O)[C@H](CCCCN)NC(=O)[C@H](Cc1ccccc1)NC(=O)[C@@H](NC(=O)[C@H](CCCCN)NC(=O)[C@H](CC(C)C)NC(=O)[C@H](Cc1ccccc1)NC(=O)[C@H](CO)NC(=O)[C@H](CCCCN)NC(=O)[C@H](Cc1c[nH]c2ccccc12)NC(=O)[C@H](CCCCN)NC(C)=O)[C@@H](C)O)[C@@H](C)O)C(C)C)[C@@H](C)O)C(=O)N[C@@H](CO)C(=O)N[C@@H](CO)C(N)=O has an MIC90 of 4 µg/mL (≈ 1.36 µM) (Pseudomonas aeruginosa; ATCC 27853).
The MIC90 of Cn1c(=O)ccc2ccc(F)c(CCNC[C@H]3CN(c4cnc5c(n4)NC(=O)CO5)C(=O)O3)c21 is reported as 0.06 µg/mL (≈ 0.128 µM) (Shigella spp.).
O=[N+]([O-])c1ccc(NCCSSc2ccccn2)c2nonc12 gave a viability reduction of 17.3% (Schistosoma mansoni; microscopic viability scoring; newly transformed schistosomula; 10 µM, 72 h, prescreen).
CN[C@H](CC(C)C)C(=O)N[C@H]1C(=O)N[C@@H](CC(N)=O)C(=O)N[C@H]2C(=O)N[C@H]3C(=O)N[C@H](C(=O)N[C@H](C(=O)O)c4cc(O)cc(O)c4-c4cc3ccc4O)[C@H](O)c3ccc(c(Cl)c3)Oc3cc2cc(c3O[C@@H]2O[C@H](CO)[C@@H](O)[C@H](O)[C@H]2O[C@H]2C[C@](C)(N)[C@H](O)[C@H](C)O2)Oc2ccc(cc2Cl)[C@H]1O gave an MBC of 4 µg/mL (Staphylococcus aureus; CAAS-2019-CAAS-2019-13 clinical drug-resistant isolate, PBS).
Nc1nc2c(ncn2COCCO)c(=O)[nH]1 gave an IC50 of 95400 ± 3750 nM (Herpes simplex virus 2; viral replication, RT-qPCR; BEAS-2B, compound-resistant).
Under “change in serum pgRNA”, CCOC(=O)C1=C(CN2CCOCC2)NC(c2nccs2)=NC1c1ccc(F)cc1Br (centres unmarked) is recorded as -0.75 log10 copies/mL (Hepatitis B virus; measured: HBV pgRNA; chronic HBV infection patients; oral, 120 mg/day, 28 days, with: ritonavir 100 mg/day; baseline: baseline).
CCOC(=O)CCCn1c(SCCO)nc2ccccc21 has a viability reduction of 15.6% (Schistosoma mansoni; microscopic viability scoring; newly transformed schistosomula; 10 µM, 72 h, prescreen).
CC(C)C[C@H](NC(=O)[C@H](CCN)NC(=O)[C@H](CCN)NC(=O)[C@@H](Cc1ccccc1)NC(=O)[C@H](CC(C)C)NC(=O)[C@H](CCN)NC(=O)[C@H](CCN)NC(=O)[C@@H](CCN)NC(=O)[C@@H](N)CSCCOC(=O)c1ccccc1)C(N)=O gave an MBC of over 128 µM (Acinetobacter calcoaceticus; BHI agar spot plating; 24 h, 37 °C).
COc1ccccc1Cc1cc2c(ccc3ccccc32)oc1=O gave a viability reduction of 25% (Schistosoma mansoni; microscopic viability scoring; newly transformed schistosomula; 10 µM, 72 h, prescreen).
For C=CC[C@@H]1c2ccc(OC)c(OC)c2CN2CCc3cc4c(cc3[C@H]12)OCO4, “relative wound size” read 0.79 and 0.9 and 1.23 and 0.91 and 0.98 and 0.95 (Staphylococcus aureus; P2rx7 A312V/A312V mice, skin wound infection; dose not given, day 3; baseline: day 0).

Excerpt of the above:
C[C@@H]1C[C@H](O)[C@]2(O)O[C@@H]3C[C@@]4(C=O)[C@@H](CC[C@@H]5[C@@H]4CC[C@]4(C)[C@@H](C6=CC(=O)OC6)CC[C@]54O)C[C@H]3O[C@@H]2O1 gave a viability effect of 22.9% (Schistosoma mansoni; microscopic viability score; adult worms; 0.1 µM, 72 h).
The inhibition of Nc1ncnc2c([C@@H]3N[C@H](CO)[C@@H](O)[C@H]3O)c[nH]c12 is reported as 71.9% (Rhinovirus A; viral replication; HRV2 HGP; 9.5 µM).
